Measured values pooled from the literature.
Each numbered part is a random draw from the data of one study; scales do not carry over between parts.

Set 1 — method: RNA Bind-n-Seq; molecule type: RNA; matrix: in vitro; concentration: 365 nM; relative to: no-protein control; reading: higher = stronger binding
Target: RNA binding protein fox-1 homolog 2, RRM domain, GST-SBP tag (RBFOX2, Homo sapiens, UniProt O43251-10, residues 100-194)
Notes: natural RNA segment, single round, ends assumed
Target sequence (chain): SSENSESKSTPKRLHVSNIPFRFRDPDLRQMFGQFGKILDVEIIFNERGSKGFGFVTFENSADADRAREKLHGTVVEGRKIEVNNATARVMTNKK
For `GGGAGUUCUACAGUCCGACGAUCUCGGGAAGCUGAGGCAGGUGAAUUGUUUGAACCUGGGAGGUGGAGGUUGCAGUGAGCAGAGAUCACACCACUGCACUCUAGCCUGGGUGACAGAGCAAGACUCUGUCUAAUGGAAUUCUCGGGUGCCAA`, “RBNS enrichment (R)” read 0.494.
`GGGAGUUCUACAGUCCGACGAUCAGGGCACAGACAGAGAGGCUACAGGGCGAGCUCUGACUGAAGAUGGGCCUUUGAAAUAUAGGUAUGCACCUGAGGUUGGGGGAGGGUCUGCACUCCCAAACCCCAGCGCAUGGAAUUCUCGGGUGCCAA`: “RBNS enrichment (R)” 5.03.
Under “RBNS enrichment (R)”, `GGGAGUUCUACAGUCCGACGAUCAGCCACUGAGAGACUCCUUUGAGGGGGGUCACUGUGCUGUAGGUUAUUUUCCUCCACCCCACUUACUGUGAUGGGGCAAGGGAAGAACCCAGUCUUGUCCCCUGAAUUUUUGGAAUUCUCGGGUGCCAA` is recorded as 0.228.
Under “RBNS enrichment (R)”, `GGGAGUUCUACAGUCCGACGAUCUUUUCAAAAUUGCAGUGCUAAAAGCACACAAUUUCAAGAAAGCCUUCUCUAGUUCCCUGGCUCAGUAGGACAUUUCUUCCACCCACUCCCAGUCCCCCAACACUCCCUUCUGGAAUUCUCGGGUGCCAA` is recorded as 0.543.
`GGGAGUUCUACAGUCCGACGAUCCUUCCUGAGUUUUCUCAGUUUUUACAUCUAAGAUUAGUCUUGGCUGAAGAGAAAUGAGACGUGAUUAUACUACUUUUUCAAUUGCAGGUUUAAGGAGUUCAGAUUUAAUGUGGAAUUCUCGGGUGCCAA` — result for “RBNS enrichment (R)”: 0.432.
`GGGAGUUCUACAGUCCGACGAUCUUUGUCCUACCAGCCACAGCUCCAUAGACAGCAGCUGGCAGUAGAGCAAAAGUUGGGGAGAGGAUUUUGUUGUUUGCCUAGACUAGUCCUGAGGGAAGAAACACCACGUCUGGAAUUCUCGGGUGCCAA` — result for “RBNS enrichment (R)”: 0.419.
`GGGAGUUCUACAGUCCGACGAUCUACUGCCAUAGAAGCUAAAAGCACCCUAGCUUUCUUAGACAAUCCACUUAGCUAUCUGAAACUUGAGGCAUUCCAGACCUGACAUGUUUACAAUGCACCACUGAACUUUUUGGAAUUCUCGGGUGCCAA`: “RBNS enrichment (R)” 1.1.
`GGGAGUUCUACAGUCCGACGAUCAGCCCUGCUCCUUGCCUUUUGCAUUGUCAUUCCUCCCCUCUGUCCAGGUCAUUCCUUGGCUAAGCCUUCGAGCUCCCUUAUACCCAUGCUAUCUGGUUUGACAAUUCCAUUGGAAUUCUCGGGUGCCAA`: “RBNS enrichment (R)” 0.441.
Under “RBNS enrichment (R)”, `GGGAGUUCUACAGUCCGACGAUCUUUUCUGACUGAGCCAAUAGUGGUUGGGGAACUCUUGAAAAAGGGGAGAGAAUGGCUGGGUGCUGGGGAGUUCCCCCCUCCGAGCCCUCCUUCCCGGCCCAACCUGAGGGUGGAAUUCUCGGGUGCCAA` is recorded as 0.186.
`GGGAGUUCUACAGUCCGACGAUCUGUGUGGGACCACCGGCUCCACCCUCCCCGCCCAUCACCAUUGCAGUUUUGCUAGAAGCUGGCGCUUCCUCCCCAGGGCAGGGGCCCCACAGCACCUCAGACCCCAAGUGUGGAAUUCUCGGGUGCCAA` — result for “RBNS enrichment (R)”: 0.345.
`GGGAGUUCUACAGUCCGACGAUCACUCAUGGAGCUUGUUUCAGCUCCUCACUUCUUGACUGUAUUUGUACUAUGUUGAAAAAAUAUCCUGUCCACAAAGACAUAAGCCUAACAACCUAGAAAAACAACAGGGUUGGAAUUCUCGGGUGCCAA` — result for “RBNS enrichment (R)”: 0.526.
`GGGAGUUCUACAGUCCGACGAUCUUGAAGACACAGCAGAAAGGGGGCUUAGGGAUGAGGUCCUGGUUUUUCUUGUAUAAAUAGGAGUCAUGGGCGUUAGUUCUGUAGUAAUAACUUCCCAGCACCUGGACAUCUGGAAUUCUCGGGUGCCAA` — result for “RBNS enrichment (R)”: 0.879.

Set 2 — method: RNA Bind-n-Seq; molecule type: RNA; matrix: in vitro; concentration: 200 nM; notes: whole 134-nt RNA, ends assumed; with: 150 mM KCl; relative to: input library; reading: higher = stronger binding
Target: Fragile X messenger ribonucleoprotein 1, C-terminal low-complexity region (Fmr1, Mus musculus, UniProt P35922)
The log2 enrichment of `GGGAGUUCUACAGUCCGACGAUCCCUGUGCUACACAUCGUAUGUACCGAAUCGGGGUUUUUUUGGGGUUUUUGGGGUUUGGGGAAAGUAUUAUGUUACGCCGUUCGGAUCUGCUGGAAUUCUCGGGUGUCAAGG` is reported as 0.418.
`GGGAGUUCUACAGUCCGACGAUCUGGCCCUGGUGGCAUGCGGGGAGGAAGAGGUGGCCUCAUGGAUCGUGGUGGUCCCGGUGGAAUGUUCAGAGUUGGCCGUGGUGGAGACAGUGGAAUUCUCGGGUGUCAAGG` gave a log2 enrichment of 0.184.
`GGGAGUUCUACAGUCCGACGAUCCCUCAAGUCCUGUGCUACACAUCGUAUGUACCGAAUCGGGGAGGAGGGAGGGAAAGUAUUAUGUUACGCCGUUCGGAUCUGCACUUCCAGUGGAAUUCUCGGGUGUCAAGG` has a log2 enrichment of 1.15.
`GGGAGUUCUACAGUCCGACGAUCCACAGACAACACGCACCCACACAGACACAGAGGGAAGGGGUUGGGAUGGGGACAGGGUGCACGGCAGGGCGGGGUAGGACCCCAGCCCCUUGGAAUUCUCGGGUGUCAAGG` gave a log2 enrichment of 1.22.
With `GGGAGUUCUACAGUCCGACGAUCUAAAUUCAUCUGAAAAUGGUGAGGACAGGCACAAACGCAAAGAAAGAAAGUCAUCAAGAGGCAGAAGUCACUCAAGAUCUAGGUCUCGUGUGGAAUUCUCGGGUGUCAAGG` the log2 enrichment was -1.49.
For `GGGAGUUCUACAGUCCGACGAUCCAAGUCCUGUGCUACACAUCGUAUGUACCGAAUCGGUUUUUGGUUUUUGGUUUGGAAAGUAUUAUGUUACGCCGUUCGGAUCUGCACUUCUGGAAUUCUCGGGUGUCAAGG`, the log2 enrichment was -0.72.
`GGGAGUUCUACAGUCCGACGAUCGCAGGAAGUAAAAACAAAUGGAAAUGCUUCGGAUAGAAACAGGGGUGGGGGUUGCUAAGGAAAGGGUGGGAUGGGAGUGGGUAAAGAGUUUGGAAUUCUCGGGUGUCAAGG` has a log2 enrichment of 0.29.
For `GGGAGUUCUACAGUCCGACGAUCCCUCAAGUCCUGUGCUACACAUCGUAUGUACCGAAUCGGUUUGGUGGAAAGGAAAGUAUUAUGUUACGCCGUUCGGAUCUGCACUUCCAGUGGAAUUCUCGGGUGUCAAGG`, the log2 enrichment was 0.269.
The log2 enrichment of `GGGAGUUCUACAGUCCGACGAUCAGUCCUGUGCUACACAUCGUAUGUACCGAAUCGGCCCCCGGGCCCCCGGGGCCCCCGGAAAGUAUUAUGUUACGCCGUUCGGAUCUGCACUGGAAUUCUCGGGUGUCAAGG` is reported as -0.806.
For `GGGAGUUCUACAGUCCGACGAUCUCAAGUCCUGUGCUACACAUCGUAUGUACCGAAUCGGAGGAAAAAAAGGUUUGGAAAGUAUUAUGUUACGCCGUUCGGAUCUGCACUUCCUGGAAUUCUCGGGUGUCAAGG`, the log2 enrichment was -0.962.

Set 3 — method: protein binding microarray; molecule type: double-stranded DNA, one strand shown; matrix: in vitro; concentration: not given; relative to: not given; reading: higher = stronger binding
Target: Histone acetyltransferase KAT6A, winged helix 1, GST fusion (KAT6A, Homo sapiens, UniProt Q92794, residues 1-85)
Notes: 8-mer, flanks averaged, mean of 2 arrays, mostly near background
Residues (chain): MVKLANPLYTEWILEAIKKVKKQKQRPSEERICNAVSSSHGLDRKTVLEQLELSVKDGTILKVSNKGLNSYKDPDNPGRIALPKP
`ATCGTAAG` gave an E-score of 0.0422.
With `CACTCGCG` the E-score was 0.304.
`TATGAGAA` gave an E-score of -0.0307.
`CGCCGTGA` gave an E-score of 0.4.
With `CTTGGAAA` the E-score was -0.152.
With `ACTCCGTG` the E-score was 0.156.
With `CCAAGTTA` the E-score was -0.0947.
The E-score of `CTACTGAG` is reported as -0.148.
With `GGGAAAGA` the E-score was -0.18.
With `ACCCGCGC` the E-score was 0.442.
The E-score of `ACCGATGG` is reported as 0.021.
The E-score of `CAGAACCC` is reported as -0.00833.
`CACCTGGC` gave an E-score of -0.147.
`ATAATGGA` gave an E-score of -0.0673.
With `ACATAAAG` the E-score was -0.166.
With `AGTCTGTC` the E-score was -0.203.
`AGGGTGTC` has an E-score of -0.171.
For `CGGAATTC`, the E-score was -0.0471.
The E-score of `ACCCCGTA` is reported as 0.287.
`CTGGTAGC` gave an E-score of -0.104.
`CAACCCAG` gave an E-score of -0.121.
With `CCACCGTC` the E-score was 0.245.
With `GCGGCTCC` the E-score was 0.377.
The E-score of `ACGGTAGT` is reported as 0.131.
`CCGTCTTC` gave an E-score of 0.177.

Set 4 — method: RNAcompete; molecule type: RNA; matrix: in vitro; concentration: 20 nM; notes: 7-mer, probes averaged, single round; relative to: mean of 7-mers; reading: higher = stronger binding
Target: PABPC1L2, full length, GST fusion (mouse, UniProt A0ABA7IW68)
Construct (chain): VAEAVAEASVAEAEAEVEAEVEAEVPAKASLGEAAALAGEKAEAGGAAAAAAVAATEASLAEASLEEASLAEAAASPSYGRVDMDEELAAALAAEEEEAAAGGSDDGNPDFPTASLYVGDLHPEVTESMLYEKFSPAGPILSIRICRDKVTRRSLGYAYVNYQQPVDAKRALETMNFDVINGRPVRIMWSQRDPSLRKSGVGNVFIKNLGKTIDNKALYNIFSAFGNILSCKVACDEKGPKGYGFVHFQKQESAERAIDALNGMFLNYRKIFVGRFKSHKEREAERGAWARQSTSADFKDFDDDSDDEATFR
`GUGGGUU` has a 7-mer Z-score of -0.101.
With `GGGGCAG` the 7-mer Z-score was 0.631.
With `UCAAGGC` the 7-mer Z-score was -0.164.
For `UCUACCC`, the 7-mer Z-score was -0.365.
`UUGAUAC` has a 7-mer Z-score of -0.262.
With `CGCAUGC` the 7-mer Z-score was -0.179.
`GUAAUGU` gave a 7-mer Z-score of -0.15.
For `UUUGUGC`, the 7-mer Z-score was -0.378.
For `GGGACGU`, the 7-mer Z-score was 0.0968.
For `UAUGGGU`, the 7-mer Z-score was -0.0246.
`CGCCCCU` gave a 7-mer Z-score of -0.371.
With `AAUGGGU` the 7-mer Z-score was 0.229.
For `GUUAUUU`, the 7-mer Z-score was -0.199.
For `UUAUCCC`, the 7-mer Z-score was -0.436.
The 7-mer Z-score of `GCGUAGA` is reported as 0.191.
`AUUUGUG` gave a 7-mer Z-score of -0.349.
The 7-mer Z-score of `AUUGGAC` is reported as 0.0152.
`UACCGAG` has a 7-mer Z-score of -0.202.
With `GAGUGUA` the 7-mer Z-score was 0.111.
The 7-mer Z-score of `UAGCACU` is reported as -0.177.
The 7-mer Z-score of `GGGGGCC` is reported as 0.258.
The 7-mer Z-score of `ACGAAAG` is reported as 0.363.
`UAUAUGU` gave a 7-mer Z-score of -0.153.

A few entries again (set 3):
`TATGAGAA` gave an E-score of -0.0307.
`CGCCGTGA` gave an E-score of 0.4.
With `CTTGGAAA` the E-score was -0.152.
With `ACTCCGTG` the E-score was 0.156.
With `CCAAGTTA` the E-score was -0.0947.
The E-score of `CTACTGAG` is reported as -0.148.
With `GGGAAAGA` the E-score was -0.18.
